# Measurements collected from several papers.
# Numbered parts are unrelated; each lists some results of a single study. Several values in a cell are separate wells, animals, samples, runs or records.
# Chain of UniProt O75385 (whole entry, looked up): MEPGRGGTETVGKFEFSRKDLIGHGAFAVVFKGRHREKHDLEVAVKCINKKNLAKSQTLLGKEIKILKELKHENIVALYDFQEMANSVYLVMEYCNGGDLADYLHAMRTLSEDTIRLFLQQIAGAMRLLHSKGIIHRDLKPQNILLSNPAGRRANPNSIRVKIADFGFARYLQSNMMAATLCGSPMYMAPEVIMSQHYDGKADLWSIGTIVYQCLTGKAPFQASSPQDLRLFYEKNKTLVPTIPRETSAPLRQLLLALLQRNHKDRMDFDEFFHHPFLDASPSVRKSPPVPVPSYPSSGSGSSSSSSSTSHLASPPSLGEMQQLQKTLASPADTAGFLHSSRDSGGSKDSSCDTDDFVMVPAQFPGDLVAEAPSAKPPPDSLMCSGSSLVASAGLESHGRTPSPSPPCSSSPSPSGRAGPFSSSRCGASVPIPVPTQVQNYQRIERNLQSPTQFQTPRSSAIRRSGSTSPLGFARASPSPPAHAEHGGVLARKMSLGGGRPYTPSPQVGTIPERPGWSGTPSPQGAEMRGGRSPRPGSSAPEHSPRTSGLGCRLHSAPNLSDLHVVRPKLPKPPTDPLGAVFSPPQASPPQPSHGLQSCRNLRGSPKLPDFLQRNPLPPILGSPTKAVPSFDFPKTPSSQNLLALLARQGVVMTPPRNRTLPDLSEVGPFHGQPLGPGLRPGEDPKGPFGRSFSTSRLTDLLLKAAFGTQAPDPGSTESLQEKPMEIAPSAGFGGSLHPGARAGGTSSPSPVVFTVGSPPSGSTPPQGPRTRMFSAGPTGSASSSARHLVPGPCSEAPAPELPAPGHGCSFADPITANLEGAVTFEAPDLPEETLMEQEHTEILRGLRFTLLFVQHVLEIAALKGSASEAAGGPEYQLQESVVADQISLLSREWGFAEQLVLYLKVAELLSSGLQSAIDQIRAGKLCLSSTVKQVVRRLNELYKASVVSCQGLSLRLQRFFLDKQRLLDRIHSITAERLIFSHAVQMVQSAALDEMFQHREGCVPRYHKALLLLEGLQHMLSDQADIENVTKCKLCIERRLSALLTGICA
# Chain of UniProt Q16620 (whole entry, looked up): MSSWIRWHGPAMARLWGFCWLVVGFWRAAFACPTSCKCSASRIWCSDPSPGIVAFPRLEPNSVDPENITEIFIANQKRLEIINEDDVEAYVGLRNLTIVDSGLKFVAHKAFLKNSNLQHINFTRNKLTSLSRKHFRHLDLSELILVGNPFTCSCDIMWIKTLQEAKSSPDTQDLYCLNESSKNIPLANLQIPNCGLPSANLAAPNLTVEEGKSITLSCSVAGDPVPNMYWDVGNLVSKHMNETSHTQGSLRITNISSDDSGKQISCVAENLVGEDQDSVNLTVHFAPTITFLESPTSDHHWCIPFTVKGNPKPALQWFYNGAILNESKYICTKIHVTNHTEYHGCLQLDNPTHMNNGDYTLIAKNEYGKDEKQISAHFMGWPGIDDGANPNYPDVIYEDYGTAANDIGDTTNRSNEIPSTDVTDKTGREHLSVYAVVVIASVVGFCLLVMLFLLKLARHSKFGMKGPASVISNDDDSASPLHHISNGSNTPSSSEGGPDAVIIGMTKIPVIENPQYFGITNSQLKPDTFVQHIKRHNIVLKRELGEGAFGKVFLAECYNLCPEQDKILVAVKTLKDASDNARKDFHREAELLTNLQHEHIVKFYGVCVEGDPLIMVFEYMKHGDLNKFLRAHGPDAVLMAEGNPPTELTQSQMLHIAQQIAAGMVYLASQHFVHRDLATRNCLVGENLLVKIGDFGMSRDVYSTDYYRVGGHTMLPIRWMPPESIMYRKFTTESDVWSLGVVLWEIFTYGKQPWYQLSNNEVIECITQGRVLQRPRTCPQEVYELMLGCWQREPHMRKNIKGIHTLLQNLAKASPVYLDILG
# Chain of UniProt P08631 (whole entry, looked up): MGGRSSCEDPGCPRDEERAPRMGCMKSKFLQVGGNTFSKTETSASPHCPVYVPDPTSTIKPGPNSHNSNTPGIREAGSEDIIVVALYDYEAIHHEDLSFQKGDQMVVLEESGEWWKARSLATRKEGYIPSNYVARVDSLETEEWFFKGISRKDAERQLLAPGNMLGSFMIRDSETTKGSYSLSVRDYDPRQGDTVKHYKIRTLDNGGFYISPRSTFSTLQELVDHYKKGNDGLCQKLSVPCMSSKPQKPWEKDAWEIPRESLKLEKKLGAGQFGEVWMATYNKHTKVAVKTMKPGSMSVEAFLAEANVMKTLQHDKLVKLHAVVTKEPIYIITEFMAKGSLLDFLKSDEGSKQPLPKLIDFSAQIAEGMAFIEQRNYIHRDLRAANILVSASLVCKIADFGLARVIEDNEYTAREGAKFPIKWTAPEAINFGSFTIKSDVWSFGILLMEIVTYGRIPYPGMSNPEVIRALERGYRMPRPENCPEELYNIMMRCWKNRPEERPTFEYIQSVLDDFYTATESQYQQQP
# Chain of UniProt P15735 (whole entry, looked up): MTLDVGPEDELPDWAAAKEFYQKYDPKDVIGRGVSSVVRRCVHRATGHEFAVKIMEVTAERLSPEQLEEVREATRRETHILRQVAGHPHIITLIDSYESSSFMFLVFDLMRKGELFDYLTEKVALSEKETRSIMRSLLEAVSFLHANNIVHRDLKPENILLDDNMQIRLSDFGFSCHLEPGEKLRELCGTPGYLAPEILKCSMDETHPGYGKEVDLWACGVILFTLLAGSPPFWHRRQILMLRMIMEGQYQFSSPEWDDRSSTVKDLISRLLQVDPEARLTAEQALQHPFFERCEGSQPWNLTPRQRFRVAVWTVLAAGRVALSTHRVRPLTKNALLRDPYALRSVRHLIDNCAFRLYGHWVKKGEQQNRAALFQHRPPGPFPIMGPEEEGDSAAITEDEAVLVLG
# Chain of UniProt P25100 (whole entry, looked up): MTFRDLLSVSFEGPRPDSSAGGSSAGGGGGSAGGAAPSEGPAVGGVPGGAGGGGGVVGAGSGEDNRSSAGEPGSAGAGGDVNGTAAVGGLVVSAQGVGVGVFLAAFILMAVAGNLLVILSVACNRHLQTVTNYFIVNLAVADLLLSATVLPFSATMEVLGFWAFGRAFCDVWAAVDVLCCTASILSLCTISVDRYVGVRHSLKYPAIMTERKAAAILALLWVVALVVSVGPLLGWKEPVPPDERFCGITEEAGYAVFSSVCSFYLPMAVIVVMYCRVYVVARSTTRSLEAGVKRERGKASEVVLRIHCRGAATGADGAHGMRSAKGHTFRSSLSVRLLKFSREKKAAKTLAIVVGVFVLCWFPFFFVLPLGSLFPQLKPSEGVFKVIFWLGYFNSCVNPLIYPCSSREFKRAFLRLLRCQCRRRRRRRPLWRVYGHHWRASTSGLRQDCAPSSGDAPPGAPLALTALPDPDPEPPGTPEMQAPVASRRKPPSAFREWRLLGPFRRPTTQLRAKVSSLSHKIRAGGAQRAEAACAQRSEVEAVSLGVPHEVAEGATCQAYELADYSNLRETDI
# Chain of UniProt O94806 (whole entry, looked up): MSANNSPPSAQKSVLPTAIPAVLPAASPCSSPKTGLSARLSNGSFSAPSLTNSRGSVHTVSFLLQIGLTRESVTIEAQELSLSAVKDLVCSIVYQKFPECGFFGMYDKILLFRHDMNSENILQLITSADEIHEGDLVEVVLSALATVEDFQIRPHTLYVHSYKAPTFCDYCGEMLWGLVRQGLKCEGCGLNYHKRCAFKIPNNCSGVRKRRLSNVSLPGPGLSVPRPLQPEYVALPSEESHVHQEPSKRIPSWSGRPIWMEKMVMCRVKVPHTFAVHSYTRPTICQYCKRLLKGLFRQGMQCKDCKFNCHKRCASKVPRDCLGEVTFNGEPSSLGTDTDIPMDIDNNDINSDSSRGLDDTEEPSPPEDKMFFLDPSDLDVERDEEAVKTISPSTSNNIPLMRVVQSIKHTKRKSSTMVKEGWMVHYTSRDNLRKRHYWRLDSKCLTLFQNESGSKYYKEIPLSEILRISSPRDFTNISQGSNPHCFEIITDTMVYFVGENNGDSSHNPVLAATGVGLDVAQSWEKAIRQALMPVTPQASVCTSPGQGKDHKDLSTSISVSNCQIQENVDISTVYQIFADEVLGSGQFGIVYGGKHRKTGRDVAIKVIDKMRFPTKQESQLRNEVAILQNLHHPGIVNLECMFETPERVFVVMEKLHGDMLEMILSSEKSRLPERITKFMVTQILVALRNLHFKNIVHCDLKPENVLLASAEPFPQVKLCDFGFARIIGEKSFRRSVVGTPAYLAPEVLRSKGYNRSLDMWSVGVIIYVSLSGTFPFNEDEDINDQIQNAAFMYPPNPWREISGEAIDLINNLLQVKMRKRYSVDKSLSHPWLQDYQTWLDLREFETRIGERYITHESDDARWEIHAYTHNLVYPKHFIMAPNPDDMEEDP
# Chain of UniProt P61075 (whole entry, looked up): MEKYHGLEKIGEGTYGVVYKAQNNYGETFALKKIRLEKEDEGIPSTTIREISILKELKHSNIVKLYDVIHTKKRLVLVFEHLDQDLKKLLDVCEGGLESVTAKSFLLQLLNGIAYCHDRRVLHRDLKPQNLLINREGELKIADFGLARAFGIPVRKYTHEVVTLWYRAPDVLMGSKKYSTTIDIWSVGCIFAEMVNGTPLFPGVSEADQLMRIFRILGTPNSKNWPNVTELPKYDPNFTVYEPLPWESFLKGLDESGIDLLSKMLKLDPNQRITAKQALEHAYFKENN
# Chain of UniProt Q99986 (whole entry, looked up): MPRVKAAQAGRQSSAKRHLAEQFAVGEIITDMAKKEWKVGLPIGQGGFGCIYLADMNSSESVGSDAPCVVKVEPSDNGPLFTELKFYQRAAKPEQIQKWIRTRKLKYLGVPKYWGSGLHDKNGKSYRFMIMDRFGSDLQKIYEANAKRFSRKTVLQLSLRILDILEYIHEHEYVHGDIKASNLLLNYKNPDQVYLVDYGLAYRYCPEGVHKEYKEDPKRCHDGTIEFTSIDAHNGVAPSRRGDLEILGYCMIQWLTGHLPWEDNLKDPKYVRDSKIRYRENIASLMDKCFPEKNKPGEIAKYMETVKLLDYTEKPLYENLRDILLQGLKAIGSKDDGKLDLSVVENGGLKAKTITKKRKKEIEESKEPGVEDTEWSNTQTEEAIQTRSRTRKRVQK

# Set 1
# SMILES: N/C(=N\[N+](=O)[O-])N/N=C\c1ccc(-c2cccc([N+](=O)[O-])c2)o1
# Effect on: enzyme activity
# Action: inhibitor
# Tested at: 0.5 µM
# Reference: control
target,remaining activity
"Tyrosine-protein kinase HCK (HCK, Homo sapiens, UniProt P08631)",114%
"Serine/threonine-protein kinase PLK1 (PLK1, Homo sapiens, UniProt P53350)",98.6%
"Serine/threonine-protein kinase D3 (PRKD3, Homo sapiens, UniProt O94806)",93.9%
"Phosphorylase b kinase gamma catalytic chain, liver/testis isoform (PHKG2, Homo sapiens, UniProt P15735)",100%
"BDNF/NT-3 growth factors receptor (NTRK2, Homo sapiens, UniProt Q16620)",82.4%
"Serine/threonine-protein kinase ULK1 (ULK1, Homo sapiens, UniProt O75385)",93.8%
"Serine/threonine-protein kinase VRK1 (VRK1, Homo sapiens, UniProt Q99986)",95.1%

# Set 2
# Structure (SMILES): CNC(=O)c1ccc(-c2cnn3ccc(C(=O)N(C)c4ccc(Cl)c(C(=O)OC)c4)cc23)cc1
# Organism: Cryptosporidium parvum
# Method: time-kill
# Cells: HCT-8
# Strain: nanoluciferase-expressing
# Reading: higher = more parasites
tested at,time,parasite luminescence
2.222 µM,8 h,106000 RLU and 88500 RLU
0.00102 µM,48 h,285000 RLU and 214000 RLU
0.00305 µM,48 h,238000 RLU and 279000 RLU
6.667 µM,72 h,18900 RLU and 18800 RLU

# Single results of other studies
SMILES,tested on,test,system,setting,measurement,result
C[C@H](c1ccc(F)cc1)N(Cc1cccc(C(=O)O)c1)C(=O)c1cnc2ccccc2c1,"Cyclin-dependent kinase 2 homolog (CRK2, Plasmodium falciparum, UniProt P61075)","cell-free assay, competition with immobilised ligand",,1 µM,remaining binding,100%
CC(C)(C)NC(=O)c1cncn1C(c1ccc(Cl)cc1)c1ccc(Cl)cc1,,,"human, microsomes or S9","2 µM, 0.5 h",remaining compound,42.5%
CNC(=O)c1cc(C(=O)NC2CC2)cn(Cc2ccccc2)c1=O,"Alpha-1D adrenergic receptor (ADRA1D, Homo sapiens, UniProt P25100)","binding, radioligand binding",,10 µM,inhibition,2.36%

# Excerpt of the above (set 2):
tested at,time,parasite luminescence
0.00305 µM,48 h,238000 RLU and 279000 RLU
